Published values from different studies.
Compare with care: the assays were run in different laboratories. Numbers after ± are the reported error.

`CC(C)NC[C@@H](C(=O)N1CCN(c2ncnc3c2[C@H](C)C[C@H]3O)CC1)c1ccc(Cl)cc1` gave an AUC(0-inf) of 0.92 µg·h/mL (human, severe hepatic impairment (Child-Pugh), plasma; oral, 100 mg single dose, geometric mean).
`Cc1c(Cl)c(C)[n+]([O-])c(Cl)c1-c1noc(-c2cc(O)c(O)c([N+](=O)[O-])c2)n1` has an AUC(0-inf) of 5.2 ± 1.53 µg·h/mL (LC-MS/MS; healthy male human, fasted, plasma; oral, 50 mg single dose, tablet).
The AUC(0-inf) of `CC(C)[C@](O)(c1ccc2cc(OC(F)F)c(OC(F)F)cc2c1)c1c[nH]nn1` is reported as 44.2 ± 2.15 µg·h/mL (human patients, male, plasma; oral, 750 mg, cycle 1 day 1, first dose).
`CO[C@H]1C[C@@H]2CC[C@@H](C)[C@@](O)(O2)C(=O)C(=O)N2CCCC[C@H]2C(=O)O[C@H]([C@H](C)C[C@@H]2CC[C@@H](O)[C@H](OC)C2)CC(=O)[C@H](C)/C=C(\C)[C@@H](O)[C@@H](OC)C(=O)[C@H](C)C[C@H](C)/C=C/C=C/C=C/1C` has an AUC(0-inf) of 0.346 µg·h/mL (healthy human subjects, whole blood; oral, 2 mg single dose, arithmetic mean, with: isavuconazole 200 mg once daily after loading).
The AUC(0-inf) of `CN(CCOc1ccc(CC2SC(=O)NC2=O)cc1)c1ccccn1` (centres unmarked) is reported as 1460 µg·h/mL (human, both sexes, plasma; oral, 4 mg, single dose alone, day 1, geometric mean).
`CCCCC[C@H](O)CC[C@@H]1[C@H]2Cc3cccc(OCC(=O)O)c3C[C@H]2C[C@H]1O` gave an AUC(0-inf) of 0.00105 ± 0.0006 µg·h/mL (human Japanese PAH patients, plasma; inhalation, 54 µg four times daily, week 12).
`CN(C)Cc1c(C(=O)NCCOc2ccc(C(=O)NO)cc2)oc2ccccc12` has an AUC(0-inf) of 0.309 ± 0.0763 µg·h/mL (human, plasma; oral, 80 mg single dose).
`CCc1nc(C(N)=O)c(Nc2ccc(N3CCC(N4CCN(C)CC4)CC3)c(OC)c2)nc1NC1CCOCC1` has an AUC(0-inf) of 0.549 µg·h/mL (human, normal hepatic function, plasma; oral, 10 mg, single dose, fasted, geometric LS mean).
The AUC(0-inf) of `Cc1ccc(NC(=O)c2ccc(CN3CCN(C)CC3)cc2)cc1Nc1nccc(-c2cncc(-c3oncc3C)c2)n1` is reported as 115 µg·h/mL (older healthy human adults, plasma; oral, 100 mg single dose, fed, mean).
For `O=C(/C=C/c1cccc(S(=O)(=O)Nc2ccccc2)c1)NO`, the AUC(0-inf) was 13.9 µg·h/mL (human moderate liver dysfunction, plasma; intravenous, 400 mg/m^2, 30 min infusion, cycle 1 day -7).
`CN1CC[C@H](c2c(O)cc(O)c3c(=O)cc(-c4ccccc4Cl)oc23)[C@H](O)C1` has an AUC(0-inf) of 4.31 to 32.2 µM·h (human patients, plasma; intravenous, 40 to 105 mg/m^2, range among patients).
For `CCCC[C@H](NC(C)=O)C(=O)N[C@H]1CCC(=O)NC[C@@H](C(=O)N[C@@H](Cc2c[nH]c3ccccc23)C(N)=O)NC(=O)[C@H](CCCNC(=N)N)NC(=O)[C@@H](Cc2ccccc2)NC(=O)[C@H](Cc2c[nH]cn2)NC1=O`, the AUC(0-inf) was 0.0509 µg·h/mL (healthy human, both sexes, plasma; subcutaneous, 1.0 mg once daily, day 1, geometric mean).
For `CCCc1nn(C)c2c(=O)[nH]c(-c3cc(S(=O)(=O)N4CCN(C)CC4)ccc3OCC)nc12`, the AUC(0-inf) was 0.541 µg·h/mL (human, male, plasma; oral, 50 mg, day 1).
With `CC(C)c1nc(N(C)S(C)(=O)=O)nc(-c2ccc(F)cc2)c1/C=C/[C@@H](O)C[C@@H](O)CC(=O)O` the AUC(0-inf) was 0.0612 µg·h/mL (human, plasma; oral, 20 mg, geometric LS mean, with: EDP-305 10 mg).
`CC(C)[C@@H](CS(=O)(=O)C(C)C)N1C(=O)[C@@](C)(CC(=O)O)C[C@H](c2cccc(Cl)c2)[C@H]1c1ccc(Cl)cc1` has an AUC(0-inf) of 2.52 µg·h/mL (human, plasma; oral, 60 mg, old tablet, fasted, geometric LS mean).
The AUC(0-inf) of `COc1cc(OC)c(/C=C/S(=O)(=O)Cc2ccc(OC)c(NCC(=O)O)c2)c(OC)c1` is reported as 5.89 µg·h/mL (human, patients with urinary symptoms, urine; oral, 560 mg).
`CCOc1c([C@H](C)n2nc(C)c3c(N)ncnc32)cc(Cl)c(F)c1[C@@H]1CNC(=O)C1` has an AUC(0-inf) of 7.5 ± 0.787 µM·h (healthy human, fasted; oral, 10 mg single dose).
`CO[C@H]1C[C@@H]2CC[C@@H](C)[C@@](O)(O2)C(=O)C(=O)N2CCCC[C@H]2C(=O)O[C@H]([C@H](C)C[C@@H]2CC[C@@H](OCCO)[C@H](OC)C2)CC(=O)[C@H](C)/C=C(\C)[C@@H](O)[C@@H](OC)C(=O)[C@H](C)C[C@H](C)/C=C/C=C/C=C/1C` has an AUC(0-inf) of 1.13 µg·h/mL (healthy adult human, blood; 0.75 mg single dose, geometric mean, with: ritonavir-containing 3D regimen).
`COc1ccc(C[C@@H](C)[C@@H](C)Cc2ccc(OC)c(OC)c2)cc1OC` has an AUC(0-inf) of 0.1 µg·h/mL (human; oral, 1200 mg).
For `CCN1CCN(Cc2ccc(Nc3ncc(F)c(-c4cc(F)c5nc(C)n(C(C)C)c5c4)n3)nc2)CC1`, the AUC(0-inf) was 2.96 µg·h/mL (human patients, plasma; oral, 150 mg single, geometric mean).
The AUC(0-inf) of `NC1(c2ccc(-c3nc4ccn5c(=O)[nH]nc5c4cc3-c3ccccc3)cc2)CCC1` is reported as 6.24 µg·h/mL (human patients, plasma; oral, 90 mg, expansion, dose reduced, with: dinaciclib 9 mg/m^2).
`CC[C@H](C)[C@H](NC(=O)[C@H](CCC(=O)O)NC(=O)[C@H](CO)NC(=O)[C@@H](NC(=O)[C@@H](N)CO)C(C)C)C(=O)N[C@@H](CCC(N)=O)C(=O)N[C@@H](CC(C)C)C(=O)N[C@@H](CCSC)C(=O)N[C@@H](Cc1cnc[nH]1)C(=O)N[C@@H](CC(N)=O)C(=O)N[C@@H](CC(C)C)C(=O)NCC(=O)N[C@@H](CCCCN)C(=O)N[C@@H](Cc1cnc[nH]1)C(=O)N[C@@H](CC(C)C)C(=O)N[C@@H](CC(N)=O)C(=O)N[C@@H](CO)C(=O)N[C@@H](CCSC)C(=O)N[C@@H](CCC(=O)O)C(=O)N[C@@H](CCCN=C(N)N)C(=O)N[C@H](C(=O)N[C@@H](CCC(=O)O)C(=O)N[C@@H](Cc1c[nH]c2ccccc12)C(=O)N[C@@H](CC(C)C)C(=O)N[C@@H](CCCN=C(N)N)C(=O)N[C@@H](CCCCN)C(=O)N[C@@H](CCCCN)C(=O)N[C@@H](CC(C)C)C(=O)N[C@@H](CCC(N)=O)C(=O)N[C@@H](CC(=O)O)C(=O)N[C@H](C(=O)N[C@@H](Cc1cnc[nH]1)C(=O)N[C@@H](CC(N)=O)C(=O)N[C@@H](Cc1ccccc1)C(=O)O)C(C)C)C(C)C` has an AUC(0-inf) of 0.00121 ± 0.00022 µg·h/mL (immunoradiometric; human, plasma; subcutaneous, 56.5 µg once weekly, day 1).
For `Cc1ccc(NC(=O)c2ccc(CN3CCNCC3)cc2)cc1Nc1nccc(-c2cccnc2)n1`, the AUC(0-inf) was 23.8 µg·h/mL (human patients, plasma; oral, 400 mg/day of imatinib, day 10 of cycle 1).
With `CC#CC(=O)NCCCC(=O)c1nc(-c2ccc(C(=O)Nc3ccccn3)cc2)c2c(N)nccn12` the AUC(0-inf) was 0.817 µg·h/mL (human, healthy control, plasma; oral, 50 mg acalabrutinib, single, geometric mean).
`O=c1[nH]c(=O)c(Cc2cccc(C(F)(F)F)c2)c([C@H]2CC[C@H](c3ccccc3)CC2)[nH]1` has an AUC(0-inf) of 7.64 µg·h/mL (human, fasted, plasma; oral, 900 mg single dose, geometric mean).
With `CN(Cc1cnc2nc(N)nc(N)c2n1)c1ccc(C(=O)N[C@@H](CCC(=O)O)C(=O)O)cc1` the AUC(0-inf) was 2.25 µg·h/mL (human, plasma; oral, 17.5 mg, day 1, alone).
The AUC(0-inf) of `O=C(CCCCCCC(=O)Nc1ccccc1)NO` is reported as 1.11 ± 0.507 µg·h/mL (human, cycle 1 day 2, plasma; oral, 400 mg, with: bortezomib).
With `CO[C@H]1C[C@@H]2CC[C@@H](C)[C@@](O)(O2)C(=O)C(=O)N2CCCC[C@H]2C(=O)O[C@H]([C@H](C)C[C@@H]2CC[C@@H](O)[C@H](OC)C2)CC(=O)[C@H](C)/C=C(\C)[C@@H](O)[C@@H](OC)C(=O)[C@H](C)C[C@H](C)/C=C/C=C/C=C/1C` the AUC(0-inf) was 4.36 µg·h/mL (human, whole blood; oral, 15 mg, with: grapefruit juice).
For `CNC(=O)c1ccc(-c2cnc3ncc(Cc4ccc5ncccc5c4)n3n2)cc1F`, the AUC(0-inf) was 7.72 µg·h/mL (human severe hepatic impairment; oral, 200 mg single dose, adjusted geometric mean).
The AUC(0-inf) of `CC(=O)O[C@H]1C(=O)[C@@]2(C)[C@H]([C@H](OC(=O)c3ccccc3)[C@]3(O)C[C@H](OC(=O)[C@H](O)[C@@H](NC(=O)c4ccccc4)c4ccccc4)C(C)=C1C3(C)C)[C@]1(OC(C)=O)CO[C@@H]1C[C@@H]2O` is reported as 5.8 ± 2.2 µM·h (human patients on nelfinavir alone, plasma; iv, 100 mg/m^2 over 3 h, cycle 1).
For `CCS(=O)(=O)N1CC(CC#N)(n2cc(-c3ncnc4[nH]ccc34)cn2)C1`, the AUC(0-inf) was 0.78 µg·h/mL (healthy Chinese human subjects, plasma; oral, 10 mg, single dose, mean).
`CCOc1cc([C@@H](CS(C)(=O)=O)N2C(=O)c3cccc(NC(C)=O)c3C2=O)ccc1O[C@@H]1O[C@H](C(=O)O)[C@@H](O)[C@H](O)[C@H]1O` gave an AUC(0-inf) of 3.97 µg·h/mL (healthy human controls, plasma; oral, 30 mg apremilast, matched to mild impairment).
For `C=CC(=O)Nc1cc(Nc2ncc(C(=O)OC(C)C)c(-c3cn(C)c4ccccc34)n2)c(OC)cc1N(C)CCN(C)C`, the AUC(0-inf) was 0.186 µg·h/mL (human, fasted; oral, 40 mg single dose, arithmetic mean).
With `CNC(=O)c1ccc(-c2cnc3ncc(Cc4ccc5ncccc5c4)n3n2)cc1F` the AUC(0-inf) was 5.18 µg·h/mL (healthy human subjects, plasma; oral, 200 mg, adjusted geometric mean, alone).
`Cc1ccc(C(=O)NC2CC2)cc1-n1ncc(C(=O)c2cccc(C#N)c2)c1N` gave an AUC(0-inf) of 6.21 µg·h/mL (human, plasma; oral, 14 mg, geometric mean, with: azithromycin 500 mg daily for three days).

For quick reference, copied from above:
The AUC(0-inf) of `CC(C)[C@](O)(c1ccc2cc(OC(F)F)c(OC(F)F)cc2c1)c1c[nH]nn1` is reported as 44.2 ± 2.15 µg·h/mL (human patients, male, plasma; oral, 750 mg, cycle 1 day 1, first dose).
`CO[C@H]1C[C@@H]2CC[C@@H](C)[C@@](O)(O2)C(=O)C(=O)N2CCCC[C@H]2C(=O)O[C@H]([C@H](C)C[C@@H]2CC[C@@H](O)[C@H](OC)C2)CC(=O)[C@H](C)/C=C(\C)[C@@H](O)[C@@H](OC)C(=O)[C@H](C)C[C@H](C)/C=C/C=C/C=C/1C` has an AUC(0-inf) of 0.346 µg·h/mL (healthy human subjects, whole blood; oral, 2 mg single dose, arithmetic mean, with: isavuconazole 200 mg once daily after loading).
The AUC(0-inf) of `CN(CCOc1ccc(CC2SC(=O)NC2=O)cc1)c1ccccn1` (centres unmarked) is reported as 1460 µg·h/mL (human, both sexes, plasma; oral, 4 mg, single dose alone, day 1, geometric mean).
`CCCCC[C@H](O)CC[C@@H]1[C@H]2Cc3cccc(OCC(=O)O)c3C[C@H]2C[C@H]1O` gave an AUC(0-inf) of 0.00105 ± 0.0006 µg·h/mL (human Japanese PAH patients, plasma; inhalation, 54 µg four times daily, week 12).
`CN(C)Cc1c(C(=O)NCCOc2ccc(C(=O)NO)cc2)oc2ccccc12` has an AUC(0-inf) of 0.309 ± 0.0763 µg·h/mL (human, plasma; oral, 80 mg single dose).
